Experimental data from different studies.
Protocols differ between the studies behind these lines. Several values in a cell are separate wells, animals, samples, runs or records. Numbers after ± are the reported error.

Compound	target	test	system	conditions	scale	measurement	value
OC[C@H]1O[C@@H]2O[C@H]3[C@H](O)[C@@H](O)[C@@H](O[C@H]4[C@H](O)[C@@H](O)[C@@H](O[C@H]5[C@H](O)[C@@H](O)[C@@H](O[C@H]6[C@H](O)[C@@H](O)[C@@H](O[C@H]7[C@H](O)[C@@H](O)[C@@H](O[C@H]1[C@H](O)[C@H]2O)O[C@@H]7CO)O[C@@H]6CO)O[C@@H]5CO)O[C@@H]4CO)O[C@@H]3CO	LuxR	Escherichia coli sensor		1 µM	higher = stronger induction	bioluminescence induction	714 ± 60 RLU
CC(=O)c1cnc(N)nc1N1CC[C@H]1c1nn2ccc(Cl)c2c(=O)n1-c1ccccc1	PI3Kβ	KiNativ	monkey white blood cell lysate	1 µM		binding	69.6%
C=CC(=O)Nc1cccc(Cn2ncc3cnc(Nc4cnn(CCOC)c4)nc32)c1	YANK1 human	binding, KINOMEscan		100 nM	lower = stronger binding	percent of control	84%
C[n+]1ccc(/C=N/NC(=O)c2ccc3ccc4ccc(C(=O)N/N=C/c5cc[n+](C)cc5)nc4c3n2)cc1	22CTA telomeric G4-DNA antiparallel	FRET melting		1 µM, K10 buffer, DNA 0.2 µM		ΔTm	17.7 ± 0.8 °C
c1ccc(-c2n[nH]cc2-c2ccnc3ccccc23)nc1	HRK1 (Candida albicans)	kinase binding, MIB/MS competition	Candida albicans lysate	10 µM	baseline: DMSO	log2 fold change	-0.02
Nc1ncc(-c2cc(-c3cnn(CC(F)(F)F)c3)ncc2F)nc1C(=O)NC1CNCC(F)C1 (stereo not shown)	AMPK-alpha2	KINOMEscan competition binding		1 µM	baseline: DMSO control	remaining binding	63%
CCN1CCC(CCNCc2cc3ccccc3nc2SCc2ccccc2)CC1	electron transport chain	proton pumping, ACMA quenching	Pseudomonas aeruginosa inverted membrane vesicles	32 µg/mL, together with: NADH		inhibition	67%
O=C(CCCCCCc1ccccc1)c1ncc(-c2ccc(CBr)cn2)o1	fatty-acid amide hydrolase (mouse)	item: anandamide levels	mouse, brain	i.p., dose not given		inhibition	> 90%
O=C(N/N=C/c1ccc2c(ccc[n+]2Cc2ccccc2)c1)c1ccc2ccc(C(=O)N/N=C/c3ccc4c(ccc[n+]4Cc4ccccc4)c3)nc2n1	22CTA telomeric G4-DNA antiparallel	FRET melting		1 µM, K10 buffer, DNA 0.2 µM, together with: ds26 10 µM		ΔTm	15.8 ± 0.2 °C
O=c1c(Oc2ccccc2)c(C(F)(F)F)oc2c(O)c(O)ccc12	ROC1-CUL1 E3 subcomplex	di-ubiquitin synthesis		100 µM	baseline: input	di-ubiquitin formed	28%
C[n+]1ccc(/C=N/NC(=O)N/N=C/c2cc[n+](C)cc2)cc1	22CTA telomeric G4-DNA antiparallel	FRET melting		1 µM, K10 buffer, DNA 0.2 µM		ΔTm	2.5 ± 1.7 °C
CC(C)Oc1cc(Cl)ccc1CNc1cc(-c2ccccc2)nc2ncnn12	endogenous β-adrenergic receptors	cAMP level, cAMP GloSensor	mock-transfected cells	100 pM, together with: isoprenaline 30 nM	higher = more cAMP	cAMP luminescence	23300 a.u. and 28500 a.u. and 24000 a.u.
CC[n+]1cccc2cc(/C=N/NC(=O)c3cccc(C(=O)N/N=C/c4ccc5c(ccc[n+]5CC)c4)c3)ccc21	22CTA telomeric G4-DNA antiparallel	FRET melting		1 µM, K10 buffer, DNA 0.2 µM, together with: ds26 10 µM		ΔTm	5.8 ± 0.3 °C
C=CC(=O)N1[C@@H](c2ccc3c(c2)OCO3)c2[nH]c3ccccc3c2C[C@H]1C(=O)N1CCN(C)CC1	human cyclin E1 wild type-3xFLAG:CDK2	co-IP with TMT proteomics, item: ATAD3A		concentration not given, Q9NVI7	baseline: wild type DMSO	relative co-enrichment	98%
O=C(N/N=C/c1ccc2c(ccc[n+]2Cc2ccccc2)c1)c1cccc(C(=O)N/N=C/c2ccc3c(ccc[n+]3Cc3ccccc3)c2)c1	22CTA telomeric G4-DNA antiparallel	FRET melting		1 µM, K10 buffer, DNA 0.2 µM, together with: ds26 10 µM		ΔTm	13.6 ± 0.2 °C
Cc1[nH]nc2c1N=C(c1ccccc1Cl)c1cnc(N3CCOCC3)cc1N2	P2Y receptor, rat	radioligand binding		10 µM		inhibition	1%
